Measured values pooled from the literature.
Each line is one published result; not all experiments were run side by side. Values joined by “and” are separate records of one study, mostly repeats; a detail may differ. Numbers after ± are the reported error.

Structure (SMILES) = COC1CN([C@H]2CC[C@H]([C@@]3(C)Oc4c(Cl)cc(C(=O)NCc5c(SC)cc(C)[nH]c5=O)c(C)c4O3)CC2)C1; test = RNA-seq, measured: CYSTM1 mouse homolog; test system = mouse, HT-1376 xenograft, whole blood; conditions = dose not given; scale = relative to: vehicle; measurement = log2 fold change; result = 5.05
Structure (SMILES) = CCC(=O)N[C@@H](C)C(=O)OCC(=O)N[C@@H](C)C(=O)O; test system = water; conditions = pH 7, 37 °C; measurement = chain scission rate constant; result = 0.0134 h⁻¹
Structure (SMILES) = N#Cc1cc(C(=O)OCC[18F])c(C(F)(F)F)nc1N1CCN(C(=O)Cc2ccccc2)CC1; test = model, four-parameter reference tissue, PET; test system = human epilepsy patients, epileptic focus; conditions = dose not given, unit not given; scale = relative to: contralateral reference region; measurement = binding potential (BPND); result = 0.23
Structure (SMILES) = Cc1cc(C(C)(C)C)ccc1OCCOCCN(C)C; test = locomotor activity in dark; test system = zebrafish larvae, 7 dpf; conditions = 10 µM, minute 7, dark phase; measurement = larval motion; result = 12.2 ± 0.8 pixels/frame
Structure (SMILES) = C=CC(=O)N1CC2C(=O)N(CCN(C)C)c3c(c4cc(Cl)c(-c5c(O)cccc5F)nc4n(-c4c(C)ccnc4C(C)C)c3=O)N2CC1C (stereo not shown); test = MSD; test system = BALB/c nude mouse, H358 xenograft, tumour; conditions = 100 mg/kg, 6 h; measurement = p-ERK/ERK ratio; result = decreased
Structure (SMILES) = Cc1cn(CC(=O)N(CC(=O)N[C@H]2COC[C@@H]2N(CC(=O)NCCOCCOCC(N)=O)C(=O)Cn2cnc3c(N)ncnc32)[C@H]2COC[C@@H]2NC(=O)CN(C(=O)Cn2cnc3c(N)ncnc32)[C@H]2COC[C@@H]2NC(=O)CN(C(=O)Cn2cnc3c(=O)[nH]c(N)nc32)[C@H]2COC[C@@H]2NC(=O)CN(C(=O)Cn2cc(C)c(=O)[nH]c2=O)[C@H]2COC[C@@H]2NC(=O)CN(C(=O)Cn2cnc3c(=O)[nH]c(N)nc32)[C@H]2COC[C@@H]2NC(=O)CN(C(=O)Cn2cc(C)c(=O)[nH]c2=O)[C@H]2COC[C@@H]2NC(=O)CN(C(=O)Cn2cnc3c(N)ncnc32)[C@H]2COC[C@@H]2NC(=O)CN(C(=O)Cn2cnc3c(=O)[nH]c(N)nc32)[C@H]2COC[C@@H]2N)c(=O)[nH]c1=O; test = UV melting; test system = DNA duplex with T·T mismatch; conditions = pH 7.2, 1 µM each strand; measurement = Tm; result = 58.2 °C
Structure (SMILES) = O=C(CCN1CCN(C/C=C/c2ccccc2)CC1)Nc1ccc2c(c1)CCC2; test = locomotor activity in dark; test system = zebrafish larvae, 7 dpf; conditions = 10 µM, minute 3, dark phase; measurement = larval motion; result = 4.8 ± 0.9 pixels/frame
Structure (SMILES) = CC(C)c1cnc(-c2cc(Cl)ccc2F)cc1Nc1ccncc1C(=O)NC(CO)CO; test system = mice, MC-38 tumour, tumour; conditions = 10 mg/kg twice daily, 96 h, 4 day, then holiday, ×7; scale = relative to: CD45+; measurement = monocytic MDSC; result = 12.4%
Structure (SMILES) = Cc1cn(CC(=O)N(CCNC(=O)CN(CCNC(=O)CN(CCNC(=O)CN(CCNC(=O)CN(CCNC(=O)CN(CCNC(=O)CN(CCNC(=O)CN(CCN)C(=O)Cn2cnc3c(=O)[nH]c(N)nc32)C(=O)Cn2cnc3c(N)ncnc32)C(=O)Cn2cc(C)c(=O)[nH]c2=O)C(=O)Cn2cnc3c(=O)[nH]c(N)nc32)C(=O)Cn2cc(C)c(=O)[nH]c2=O)C(=O)Cn2cnc3c(=O)[nH]c(N)nc32)C(=O)Cn2cnc3c(N)ncnc32)CC(=O)NCCN(CC(=O)NCCOCCOCC(N)=O)C(=O)Cn2cnc3c(N)ncnc32)c(=O)[nH]c1=O; test = UV melting; test system = DNA duplex with T·G mismatch; conditions = pH 7.2, 1 µM each strand; measurement = Tm; result = 25.4 °C
Structure (SMILES) = O=S(=O)(NCc1ccncc1)c1ccc(C2CCCCC2)cc1; test = immunohistochemistry; test system = CK-p25 mice female, hippocampus; conditions = ip, 0.3 mg/kg daily, 6 wk; scale = relative to: vehicle; measurement = GFAP area reduction; result = ~25%
Structure (SMILES) = CN(C)CCOCCOc1ccc(Cl)c(Cl)c1; test = locomotor activity in dark; test system = zebrafish larvae, 7 dpf; conditions = 10 µM, minute 5, dark phase; measurement = larval motion; result = 1.2 ± 0.6 pixels/frame
Structure (SMILES) = S=C(S)OC1CC2CC1C1CCCC21 (stereo not shown); test = inhibitor, LC-MS/MS, measured: Met- or Leu-enkephalin; test system = mouse striatal brain slices; conditions = 500 µM, 20 min, with: 50 mM KCl; measurement = extracellular enkephalin concentration; result = 398 pM and 594 pM and 389 pM and 658 pM and 749 pM and 91 pM and 101 pM and 108 pM
Structure (SMILES) = C[C@@H]1CN(c2ccnc(C(=O)N[C@H]3C[C@@H]3c3ccccc3)c2)CC[C@@H]1O; test system = female heterozygous SLC6A8 P549L mice, right hippocampus; conditions = oral, 30 mg/kg twice daily, 8 h; measurement = creatine concentration; result = 1140 µg/mL and 764 µg/mL and 802 µg/mL
Structure (SMILES) = CC(C)(C)NCC(SS(=O)(=O)O)c1ccccc1 (stereo not shown); test system = Swiss Webster mice, Schistosoma mansoni-infected; conditions = 100 mg/kg x 2 doses from day 42 post-infection, perfusion day 56 post-infection; scale = relative to: vehicle; measurement = spleen weight decrease; result = 36%
Structure (SMILES) = CN(C)C(=O)c1ccnc(N2Cc3cn(Cc4ccc(F)cc4F)nc3C2)n1; test system = mouse, hippocampal slice, Schaffer collaterals; conditions = dose not given, interstimulus interval 100; scale = relative to: second over first response; measurement = paired-pulse ratio; result = 1.44 and 1.6 and 1.61 and 1.64 and 1.56 and 2.37 and 1.57
Structure (SMILES) = Cc1cnc2nc1Nc1cccc(c1)COC/C=C/COCc1cc(ccc1OCCN1CCOCC1)N2; test system = BALB/c mice rhEPO-induced polycythemia, bone marrow; conditions = 100 mg/kg; measurement = CD71/Ter119 cells; result = 13.8% and 10.5% and 13.4% and 12.6% and 8.17%
Structure (SMILES) = CC(=O)[O-].O.O.[O-]c1ccc(Br)cc1C=NCCN1CCOCC1.[Zn+2]; test = superoxide scavenging; conditions = 200 µM; measurement = inhibition; result = 43.2%
Structure (SMILES) = COc1ccc(NC(=O)c2ccc3[nH]c(-c4ccc(N(C)C)cc4)nc3c2)cn1; test system = CT26, BALB/c mice, subcutaneous syngeneic graft; conditions = dose not given, day 9; measurement = tumour volume; result = 566 mm3 and 378 mm3 and 475 mm3 and 293 mm3 and 131 mm3
Structure (SMILES) = CO.COc1ccc2c(c1)c(CC(=O)[O-])c(C)n2C(=O)c1ccc(Cl)cc1.COc1ccc2c(c1)c(CC(=O)[O-])c(C)n2C(=O)c1ccc(Cl)cc1.O.[Co+2].c1ccc(Nc2ccccn2)nc1; test = DPPH; test system = methanol; conditions = concentration not given, 60 min; measurement = DPPH radical scavenging; result = 10.4 ± 0.79%
Structure (SMILES) = Cc1cc(OCCOCCn2ccnc2)cc(C(C)C)c1; test system = zebrafish larvae, 7 dpf; conditions = 10 µM, minute 6; measurement = larval motion; result = 7.7 ± 1.2 pixels/frame
Structure (SMILES) = CCCCCCCCCCCCCCCC(=O)NCCCC[C@H](NC(=O)[C@H](CCC(=O)O)NC(=O)[C@H](Cc1ccc(O)cc1)NC(=O)[C@H](CCC(=O)O)NC(=O)COCC(=O)NCCCOCCOCCOCCCNC(=O)[C@H](Cc1ccccc1)NC(=O)[C@H](CC(N)=O)NC(=O)[C@H](Cc1c[nH]cn1)NC(=O)[C@@H](NC(=O)[C@H](CC(=O)O)NC(=O)[C@H](CCC(N)=O)NC(=O)[C@H](CC(C)C)NC(=O)[C@H](CCCCN)NC(=O)[C@H](CCCCN)NC(=O)[C@H](CCCNC(=N)N)NC(=O)[C@H](CC(C)C)NC(=O)[C@H](Cc1c[nH]c2ccccc12)NC(=O)[C@H](CCC(=O)O)NC(=O)[C@@H](NC(=O)[C@H](CCCNC(=N)N)NC(=O)[C@H](CCC(=O)O)NC(=O)[C@H](CCSC)NC(=O)[C@H](CO)NC(=O)[C@H](CC(N)=O)NC(=O)[C@H](CC(C)C)NC(=O)[C@H](Cc1c[nH]cn1)NC(=O)[C@H](CCCCN)NC(=O)CNC(=O)[C@H](CC(C)C)NC(=O)[C@H](CC(N)=O)NC(=O)[C@H](Cc1c[nH]cn1)NC(=O)[C@H](CCSC)NC(=O)[C@H](CC(C)C)NC(=O)[C@H](CCC(N)=O)NC(=O)[C@@H](NC(=O)[C@H](CCC(=O)O)NC(=O)[C@H](CO)NC(=O)[C@@H](NC(=O)[C@@H](N)CO)C(C)C)[C@@H](C)CC)C(C)C)C(C)C)C(=O)N[C@@H](CCC(=O)O)C(=O)N[C@@H](Cc1ccc(O)cc1)C(=O)N[C@@H](CCC(=O)O)C(N)=O; test = micro-CT; test system = humanized PTH1R mouse, femur mid-shaft; conditions = 50 nmol/kg/day, 3 weeks, daily dosing, woven bone excluded; measurement = cortical porosity; result = 12.5 ± 3.17%
Structure (SMILES) = Cc1ccc(C)c(OCC(O)CN2CCN(c3cc(Cl)ccc3C)CC2)c1 (stereo not shown); test system = zebrafish larvae, 7 dpf; conditions = 10 µM, minute 2; measurement = larval motion; result = 1.8 ± 0.5 pixels/frame
Structure (SMILES) = CCCCCc1ccc(S(=O)(=O)N2CC2C(=O)OC)cc1 (stereo not shown); test system = mouse, Lewis lung carcinoma; conditions = intraperitoneal, 5 mg/kg, 16 doses, day 16; measurement = tumour volume; result = 626 mm3
Structure (SMILES) = COc1cc(N2CCN(C(=O)C3CCCN3)CC2)ccc1Nc1ncc(Cl)c(Nc2ccccc2P(C)(C)=O)n1 (stereo not shown); test system = nude mice, NCI-H3122 xenograft; conditions = intraperitoneal, 10 mg/kg every other day, day 13; measurement = tumour volume; result = 59.2 mm3 and 74.9 mm3 and 107 mm3 and 77.1 mm3 and 81.5 mm3
Structure (SMILES) = CCc1cc(OCCOCCN(C)C)ccc1Cl; test system = zebrafish larvae, 7 dpf; conditions = 10 µM, minute 2; measurement = larval motion; result = 9.7 ± 2.1 pixels/frame
Structure (SMILES) = CN1CCC[C@]1(C)/C=C/S(=O)(=O)NC(=O)Nc1c2c(cc3c1CCC3)CCC2; test system = human, whole blood ex vivo; conditions = 100 mg twice daily, day 14, 3 h, multiple ascending dose, with: LPS and ATP; measurement = IL-18 inhibition; result = 97.6%
Structure (SMILES) = COc1cc2c(cc1OC)C1Cc3ccc(OC)c(OC)c3C[NH+]1CC2.[Cl][Fe-]([Cl])([Cl])[Cl] (stereo not shown); conditions = 1.0 mg/mL, 30 min, 25 °C; measurement = DPPH scavenging; result = 46.9%
Structure (SMILES) = COc1ccc(N2CCN(CC(O)COc3ccc4ccccc4c3)CC2)cc1 (stereo not shown); test system = zebrafish larvae, 7 dpf; conditions = 10 µM, minute 4; measurement = larval motion; result = 11.3 ± 1.6 pixels/frame
Structure (SMILES) = Cc1cn(CC(=O)N(CC(=O)N[C@H]2CCC[C@@H]2N(CC(=O)N[C@H]2COC[C@@H]2N(CC(=O)N[C@H]2COC[C@@H]2N(CC(=O)N[C@H]2COC[C@@H]2N(CC(=O)NCCOCCOCC(N)=O)C(=O)Cn2cnc3c(N)ncnc32)C(=O)Cn2cc(C)c(=O)[nH]c2=O)C(=O)Cn2cnc3c(N)ncnc32)C(=O)Cn2cnc3c(=O)[nH]c(N)nc32)[C@H]2CCC[C@@H]2NC(=O)CN(C(=O)Cn2cnc3c(=O)[nH]c(N)nc32)[C@H]2CCC[C@@H]2NC(=O)CN(C(=O)Cn2cc(C)c(=O)[nH]c2=O)[C@H]2COC[C@@H]2NC(=O)CN(C(=O)Cn2cnc3c(N)ncnc32)[C@H]2COC[C@@H]2NC(=O)CN(C(=O)Cn2cnc3c(=O)[nH]c(N)nc32)[C@H]2COC[C@@H]2N)c(=O)[nH]c1=O; test = UV melting; test system = DNA duplex with T·G mismatch; conditions = pH 7.2, 1 µM each strand; measurement = Tm; result = 64.2 °C
Structure (SMILES) = O=C(CCN1CCN(C/C=C/c2ccccc2)CC1)Nc1ccccc1; test system = zebrafish larvae, 7 dpf; conditions = 10 µM, minute 6; measurement = larval motion; result = 11.2 ± 1.6 pixels/frame
Structure (SMILES) = COc1cc(O)ccc1CCC(c1ccc(O)cc1)c1cc2c(c(C)c1O)OC(c1ccc(O)cc1)CC2 (mixture of isomers); test system = human blood; conditions = 3 µM, with: A23187; measurement = 14-HDHA level; result = 549 ± 118 pg/mL
